Measured values gathered from unrelated publications.
Lines come from different studies, so protocols differ. ± gives the spread as reported.
Sequence of UniProt P21729 (whole entry, looked up): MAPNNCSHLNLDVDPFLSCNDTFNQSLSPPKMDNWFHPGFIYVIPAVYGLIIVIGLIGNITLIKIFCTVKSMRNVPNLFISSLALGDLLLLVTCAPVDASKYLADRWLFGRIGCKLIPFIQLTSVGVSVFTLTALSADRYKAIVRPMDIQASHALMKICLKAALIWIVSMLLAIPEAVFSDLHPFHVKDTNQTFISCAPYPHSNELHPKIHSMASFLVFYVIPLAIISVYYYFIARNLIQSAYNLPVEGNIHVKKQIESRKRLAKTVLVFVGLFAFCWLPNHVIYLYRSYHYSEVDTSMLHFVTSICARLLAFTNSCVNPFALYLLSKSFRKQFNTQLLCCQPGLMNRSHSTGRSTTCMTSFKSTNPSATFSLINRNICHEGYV

`CCCC[C@H](NC(=O)CCCCCCCNC(=O)c1ccc(NN)nc1)C(=O)N[C@H]1CC(=O)NCCCC[C@@H](C(N)=O)NC(=O)[C@H](Cc2c[nH]c3ccccc23)NC(=O)[C@H](CCCNC(=N)N)NC(=O)[C@@H](Cc2ccccc2)NC(=O)[C@H](Cc2c[nH]cn2)NC1=O` [technetium-99m labelled] has an uptake of 0.14 ± 0.02 %ID/g (C57 mouse, B16/F1 melanoma, lung; intravenous, 24 h).
Under “cellular uptake of iridium”, `NCCCC[C@H](NC(=O)[C@@H](N)CCCCN)C(=O)NCC(=O)NCC(=O)NCCCCCCCCNC(=O)c1ccc(-c2ccccn2)cc1` is recorded as 6.26 ± 0.31 fmol/cell (Jurkat; 25 µM, 1 h, 37 °C).
For `CSCC[C@H](NC(=O)[C@H](CC(C)C)NC(=O)[C@H](Cc1c[nH]cn1)NC(=O)CNC(=O)[C@@H](NC(=O)[C@H](C)NC(=O)[C@H](Cc1c[nH]c2ccccc12)NC(=O)[C@H](CCC(N)=O)NC(=O)CCCCCNC(=O)CNC(=O)CNC(=O)CNC(=O)CSC(C)=O)C(C)C)C(N)=O` [technetium-99m labelled], the tissue uptake was 0.54 ± 0.04 %ID/g (nude mouse, PC-3 xenograft, heart; 30 min, with: excess unlabelled conjugate).
With `N=C(N)NCCC[C@@H]1NC(=O)[C@H](CCCCNC(=O)CNC(=O)CNC(=O)CNC(=O)CC[C@H](NC(=O)CCOCCOCCOCCOCCNC(=O)CC[C@H](NC(=O)CN2CCN(CC(=O)O)CCN(CC(=O)O)CCN(CC(=O)O)CC2)C(=O)NCCOCCOCCOCCOCCC(=O)N[C@@H](CCC(=O)NCC(=O)NCC(=O)NCC(=O)NCCCC[C@@H]2NC(=O)[C@@H](Cc3ccccc3)NC(=O)[C@H](CC(=O)O)NC(=O)CNC(=O)[C@H](CCCNC(=N)N)NC2=O)C(=O)NCC(=O)NCC(=O)NCC(=O)NCCCC[C@@H]2NC(=O)[C@@H](Cc3ccccc3)NC(=O)[C@H](CC(=O)O)NC(=O)CNC(=O)[C@H](CCCNC(=N)N)NC2=O)C(=O)NCC(=O)NCC(=O)NCC(=O)NCCCC[C@@H]2NC(=O)[C@@H](Cc3ccccc3)NC(=O)[C@H](CC(=O)O)NC(=O)CNC(=O)[C@H](CCCNC(=N)N)NC2=O)NC(=O)[C@@H](Cc2ccccc2)NC(=O)[C@H](CC(=O)O)NC(=O)CNC1=O` [indium-111 labelled] the tissue uptake was 0.69 ± 0.07 %ID/g (female athymic nude mice, eyes; intravenous, 3 µCi, 1 h, U-87 MG glioma xenograft).
`CCCNC(=O)[C@H](CC(C)C)NC(=O)[C@H](Cc1c[nH]cn1)NC(=O)CNC(=O)[C@@H](NC(=O)[C@H](C)NC(=O)[C@H](Cc1c[nH]c2ccccc12)NC(=O)[C@H](CCC(N)=O)NC(=O)[C@@H](Cc1ccccc1)NC(=O)CCCCCNC(=O)CN1CCN(CC(=O)O)CCN(CC(=O)O)CCN(CC(=O)O)CC1)C(C)C` [indium-111 labelled] has a tissue uptake of 0.02 %ID/g (Gastrin-releasing peptide receptor (Mus musculus, UniProt P21729); biodistribution; CF-1 mice, brain; intravenous, 1 h, with: bombesin 100 µg, blocking).
Under “tumour to tissue ratio”, `N=C(N)NCCC[C@@H]1NC(=O)[C@H](CCCCNC(=O)CC[C@H](NC(=O)CCOCCOCCOCCOCCNC(=O)CC[C@H](NC(=O)CN2CCN(CC(=O)O)CCN(CC(=O)O)CCN(CC(=O)O)CC2)C(=O)NCCOCCOCCOCCOCCC(=O)N[C@@H](CCC(=O)NCCCC[C@@H]2NC(=O)[C@@H](Cc3ccccc3)NC(=O)[C@H](CC(=O)O)NC(=O)CNC(=O)[C@H](CCCNC(=N)N)NC2=O)C(=O)NCCCC[C@@H]2NC(=O)[C@@H](Cc3ccccc3)NC(=O)[C@H](CC(=O)O)NC(=O)CNC(=O)[C@H](CCCNC(=N)N)NC2=O)C(=O)NCCCC[C@@H]2NC(=O)[C@@H](Cc3ccccc3)NC(=O)[C@H](CC(=O)O)NC(=O)CNC(=O)[C@H](CCCNC(=N)N)NC2=O)NC(=O)[C@@H](Cc2ccccc2)NC(=O)[C@H](CC(=O)O)NC(=O)CNC1=O` [indium-111 labelled] is recorded as 4.89 ± 1.62 (athymic nude mice, female, U-87 MG glioma xenograft, tumour and liver; intravenous, 72 h; baseline: tumour over liver).
`CCCC[C@H](NC(=O)CNC(=O)CNC(=O)c1ccc(NN)nc1)C(=O)N[C@H]1CC(=O)NCCCC[C@@H](C(N)=O)NC(=O)[C@H](Cc2c[nH]c3ccccc23)NC(=O)[C@H](CCCNC(=N)N)NC(=O)[C@@H](Cc2ccccc2)NC(=O)[C@H](Cc2c[nH]cn2)NC1=O` [technetium-99m labelled] gave an uptake of 1.41 ± 0.14 %ID (C57 mouse, B16/F1 melanoma, intestines; intravenous, 0.5 h).
`N=C(N)NCCC[C@@H]1NC(=O)[C@H](CCCCNC(=O)CCOCCOCCOCCOCCNC(=O)CN2CCN(CC(=O)O)CCN(CC(=O)O)CCN(CC(=O)O)CC2)NC(=O)[C@@H](Cc2ccccc2)NC(=O)[C@H](CC(=O)O)NC(=O)CNC1=O` [indium-111 labelled] — result for “tumour to tissue ratio”: 1.34 ± 0.2 (athymic nude mice, female, U-87 MG glioma xenograft, tumour and liver; intravenous, 0.5 h; baseline: tumour over liver).
For `CC(=O)N[C@@H](CCCCN)C(=O)N[C@@H](CS)C(=O)N[C@@H](CS)C(=O)N[C@@H](Cc1ccc(O)cc1)C(=O)N[C@@H](CO)C(=O)N[C@@H](CC(C)C)C(=O)NCC(=O)NCC(=O)NCC(=O)N[C@@H](CO)C(=O)N[C@@H](CO)C(=O)N[C@@H](CCCCN)C(=O)N[C@@H](Cc1ccc(O)cc1)C(=O)N[C@@H](CCC(N)=O)C(=O)N[C@@H](CO)C(=O)N[C@@H](CC(C)C)C(=O)OCCN(c1ccccc1)C(C)c1cc(C)cn2c(=O)cc(N3CCOCC3)nc12` (stereo partly drawn), “time to uptake equilibrium” read < 10 min (LNCaP; LC-MS/MS).

Excerpt of the above:
`CCCNC(=O)[C@H](CC(C)C)NC(=O)[C@H](Cc1c[nH]cn1)NC(=O)CNC(=O)[C@@H](NC(=O)[C@H](C)NC(=O)[C@H](Cc1c[nH]c2ccccc12)NC(=O)[C@H](CCC(N)=O)NC(=O)[C@@H](Cc1ccccc1)NC(=O)CCCCCNC(=O)CN1CCN(CC(=O)O)CCN(CC(=O)O)CCN(CC(=O)O)CC1)C(C)C` [indium-111 labelled] has a tissue uptake of 0.02 %ID/g (Gastrin-releasing peptide receptor (Mus musculus, UniProt P21729); biodistribution; CF-1 mice, brain; intravenous, 1 h, with: bombesin 100 µg, blocking).
